Experimental data from different studies.
Numbered parts are unrelated; each lists some results of a single study. Positions count from the first letter of the parent shown.

Series 1
Target: Prothrombin, mature alpha-thrombin (F2, Homo sapiens, UniProt P00734)
Technique: aptamer microarray, sandwich
Molecule type: DNA with 2'F-ANA
Medium: in vitro
Tested at: 200 nM
Setting: whole 15-mer aptamer, many near background
Added: Cy3 exosite-II aptamer, 400 nM
Direction: higher = stronger binding
Endpoint: mean fluorescence intensity
Strand: GGTTGGTGTGGTTGG
2'F-ANA at 2 3 4 8 9 13 14: 259 a.u.
2'F-ANA at 1 2 3 5 9 10 12 13 14 15: 51 a.u.
2'F-ANA at 1 2 4 6 7 8 9 10 11 12 14: 196 a.u.
2'F-ANA at 1 2 3 5 6 7 10: 46.2 a.u.
2'F-ANA at 1 2 9 10 11 13 14 15: 50 a.u.
2'F-ANA at 1 2 3 6 7 8 9 12 14: 91.3 a.u.
2'F-ANA at 3 5 6 7 9 13: 80.8 a.u.
2'F-ANA at 1 3 5 7 10 15: 50.9 a.u.

Series 2
Target: CRIPT, C-terminal peptide
Technique: DHFR complementation, deep sequencing
Medium: yeast
Setting: single substitutions, model-inferred values
Baseline: wild type
Direction: higher = weaker binding
Endpoint: binding free energy change
Starting sequence: ERBIN, PDZ domain 1 (human); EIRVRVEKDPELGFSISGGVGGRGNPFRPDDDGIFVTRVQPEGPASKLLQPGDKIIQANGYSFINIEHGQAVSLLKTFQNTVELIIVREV; partner TKNYKQTSV
Y61G: 0.36 kcal/mol
P29H: -0.0015 kcal/mol
H68V: 1.49 kcal/mol
K47I: 0.257 kcal/mol
R3N: -0.0426 kcal/mol
R88F: 1.45 kcal/mol
I86C: 0.0169 kcal/mol
N25A: 0.776 kcal/mol

Series 3
Target: ABI1, truncated, D143A, DHFR fusion (Arabidopsis thaliana)
Technique: DHFR PCA, deep sequencing
Medium: yeast
Setting: methotrexate growth selection, single substitutions
Added: (+)-ABA 0.032 µM
Baseline: wild-type fitted maximum
Direction: higher = stronger binding
Endpoint: relative binding score
Starting sequence: PYL1, truncated, DHFR fusion (Arabidopsis thaliana); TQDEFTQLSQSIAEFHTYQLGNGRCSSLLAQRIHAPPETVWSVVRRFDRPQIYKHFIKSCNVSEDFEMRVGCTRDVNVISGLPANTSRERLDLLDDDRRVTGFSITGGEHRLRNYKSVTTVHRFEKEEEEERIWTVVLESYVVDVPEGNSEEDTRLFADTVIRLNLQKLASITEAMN
L94P: 4.45%
F56Y: 6.55%
E174R: -3.89%
Q7N: 16.4%
D92A: 0.896%
A35W: -2.7%
V142T: 2.7%
T101H: -1.75%

Mixed results
Starting sequence: viral docking peptide; TSVRRALFTGGSD; partner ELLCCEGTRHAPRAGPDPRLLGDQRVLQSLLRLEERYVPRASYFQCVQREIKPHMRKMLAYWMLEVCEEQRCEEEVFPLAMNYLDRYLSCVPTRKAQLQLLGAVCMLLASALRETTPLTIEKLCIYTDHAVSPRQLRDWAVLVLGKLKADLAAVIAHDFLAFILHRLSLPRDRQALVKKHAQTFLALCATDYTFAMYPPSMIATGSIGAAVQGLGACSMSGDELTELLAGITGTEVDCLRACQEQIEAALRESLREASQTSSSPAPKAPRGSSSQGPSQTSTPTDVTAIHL
F8I — normalised enrichment score (CCND3, cyclin fold, Cln2 fusion (human); yeast growth competition, sequencing; yeast; weak parent motif; baseline: not given, higher = stronger binding): 0.00077
